Measured values gathered from unrelated publications.
Compare with care: the assays were run in different laboratories. ± gives the spread as reported.
MAPK3: Mitogen-activated protein kinase 3 (MAPK3, Homo sapiens, UniProt P27361)
Sequence of UniProt P27361 (whole entry, looked up): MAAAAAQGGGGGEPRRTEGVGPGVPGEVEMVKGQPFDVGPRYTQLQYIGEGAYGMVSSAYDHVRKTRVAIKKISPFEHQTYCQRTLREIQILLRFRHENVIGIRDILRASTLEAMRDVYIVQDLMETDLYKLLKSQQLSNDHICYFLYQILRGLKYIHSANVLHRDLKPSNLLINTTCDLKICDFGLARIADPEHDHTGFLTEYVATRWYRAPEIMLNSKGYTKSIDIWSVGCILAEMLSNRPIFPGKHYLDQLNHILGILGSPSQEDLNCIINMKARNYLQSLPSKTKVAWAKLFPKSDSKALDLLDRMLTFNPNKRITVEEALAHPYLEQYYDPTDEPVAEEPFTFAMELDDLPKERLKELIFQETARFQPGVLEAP
UGT1A4: UDP-glucuronosyltransferase 1A4 (UGT1A4, Homo sapiens, UniProt P22310)
Sequence of UniProt P22310 (whole entry, looked up): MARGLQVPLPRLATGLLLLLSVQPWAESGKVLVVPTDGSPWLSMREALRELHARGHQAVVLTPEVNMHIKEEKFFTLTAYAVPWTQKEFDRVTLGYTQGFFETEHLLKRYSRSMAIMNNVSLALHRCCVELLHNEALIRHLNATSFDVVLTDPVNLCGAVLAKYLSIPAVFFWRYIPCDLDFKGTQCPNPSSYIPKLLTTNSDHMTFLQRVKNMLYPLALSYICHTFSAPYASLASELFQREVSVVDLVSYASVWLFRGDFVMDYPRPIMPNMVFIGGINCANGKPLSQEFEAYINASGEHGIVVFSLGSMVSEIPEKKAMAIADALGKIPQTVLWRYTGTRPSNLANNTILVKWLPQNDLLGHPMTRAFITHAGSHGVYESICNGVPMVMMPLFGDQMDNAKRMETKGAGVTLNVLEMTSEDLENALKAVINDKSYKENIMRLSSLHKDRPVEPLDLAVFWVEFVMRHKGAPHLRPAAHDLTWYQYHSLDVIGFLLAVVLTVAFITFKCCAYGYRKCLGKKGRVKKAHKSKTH
ALK: ALK tyrosine kinase receptor (ALK, Homo sapiens, UniProt Q9UM73)
Sequence of UniProt Q9UM73 (whole entry, looked up): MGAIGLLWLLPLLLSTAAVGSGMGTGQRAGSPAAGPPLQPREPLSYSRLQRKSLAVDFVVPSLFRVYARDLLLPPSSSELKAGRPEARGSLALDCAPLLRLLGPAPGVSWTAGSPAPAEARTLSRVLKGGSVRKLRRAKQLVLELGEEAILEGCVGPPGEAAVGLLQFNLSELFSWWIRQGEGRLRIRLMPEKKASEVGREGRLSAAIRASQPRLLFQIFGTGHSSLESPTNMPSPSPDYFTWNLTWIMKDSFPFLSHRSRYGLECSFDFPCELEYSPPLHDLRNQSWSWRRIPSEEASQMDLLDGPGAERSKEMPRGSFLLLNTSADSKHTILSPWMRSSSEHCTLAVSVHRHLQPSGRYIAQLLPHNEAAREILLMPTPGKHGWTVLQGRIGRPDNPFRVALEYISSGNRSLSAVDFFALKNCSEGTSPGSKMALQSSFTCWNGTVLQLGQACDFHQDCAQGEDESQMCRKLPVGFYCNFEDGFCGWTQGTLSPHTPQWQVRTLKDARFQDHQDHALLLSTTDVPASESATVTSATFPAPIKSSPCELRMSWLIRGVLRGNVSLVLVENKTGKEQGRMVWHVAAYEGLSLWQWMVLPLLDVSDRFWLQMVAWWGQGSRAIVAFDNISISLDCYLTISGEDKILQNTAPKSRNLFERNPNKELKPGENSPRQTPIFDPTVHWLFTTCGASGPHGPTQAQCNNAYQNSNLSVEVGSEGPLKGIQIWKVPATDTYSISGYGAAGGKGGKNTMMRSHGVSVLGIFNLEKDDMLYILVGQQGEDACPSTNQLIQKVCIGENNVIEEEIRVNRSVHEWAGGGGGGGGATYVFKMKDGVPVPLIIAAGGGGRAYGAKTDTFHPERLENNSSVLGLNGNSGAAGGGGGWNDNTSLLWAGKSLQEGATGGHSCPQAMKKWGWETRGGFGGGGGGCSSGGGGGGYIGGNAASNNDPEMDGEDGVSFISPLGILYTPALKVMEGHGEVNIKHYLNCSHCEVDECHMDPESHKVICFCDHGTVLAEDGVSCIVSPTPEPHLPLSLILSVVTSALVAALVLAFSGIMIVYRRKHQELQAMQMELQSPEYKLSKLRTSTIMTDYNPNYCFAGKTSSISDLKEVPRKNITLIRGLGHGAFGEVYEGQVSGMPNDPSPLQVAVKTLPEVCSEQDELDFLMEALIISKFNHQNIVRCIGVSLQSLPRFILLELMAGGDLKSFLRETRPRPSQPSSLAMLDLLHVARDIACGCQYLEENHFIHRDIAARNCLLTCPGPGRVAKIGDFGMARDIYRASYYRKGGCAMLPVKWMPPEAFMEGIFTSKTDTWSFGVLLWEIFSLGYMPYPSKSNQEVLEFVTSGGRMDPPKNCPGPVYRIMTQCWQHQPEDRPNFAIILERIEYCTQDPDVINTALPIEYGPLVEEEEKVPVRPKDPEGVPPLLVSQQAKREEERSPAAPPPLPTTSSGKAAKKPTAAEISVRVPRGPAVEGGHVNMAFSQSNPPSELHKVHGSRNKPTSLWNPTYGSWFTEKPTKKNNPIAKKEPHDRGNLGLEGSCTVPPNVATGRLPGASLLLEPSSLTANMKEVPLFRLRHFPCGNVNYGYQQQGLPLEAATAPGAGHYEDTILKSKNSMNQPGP
EPHA4: Ephrin type-A receptor 4 (EPHA4, Homo sapiens, UniProt P54764)
Sequence of UniProt P54764 (whole entry, looked up): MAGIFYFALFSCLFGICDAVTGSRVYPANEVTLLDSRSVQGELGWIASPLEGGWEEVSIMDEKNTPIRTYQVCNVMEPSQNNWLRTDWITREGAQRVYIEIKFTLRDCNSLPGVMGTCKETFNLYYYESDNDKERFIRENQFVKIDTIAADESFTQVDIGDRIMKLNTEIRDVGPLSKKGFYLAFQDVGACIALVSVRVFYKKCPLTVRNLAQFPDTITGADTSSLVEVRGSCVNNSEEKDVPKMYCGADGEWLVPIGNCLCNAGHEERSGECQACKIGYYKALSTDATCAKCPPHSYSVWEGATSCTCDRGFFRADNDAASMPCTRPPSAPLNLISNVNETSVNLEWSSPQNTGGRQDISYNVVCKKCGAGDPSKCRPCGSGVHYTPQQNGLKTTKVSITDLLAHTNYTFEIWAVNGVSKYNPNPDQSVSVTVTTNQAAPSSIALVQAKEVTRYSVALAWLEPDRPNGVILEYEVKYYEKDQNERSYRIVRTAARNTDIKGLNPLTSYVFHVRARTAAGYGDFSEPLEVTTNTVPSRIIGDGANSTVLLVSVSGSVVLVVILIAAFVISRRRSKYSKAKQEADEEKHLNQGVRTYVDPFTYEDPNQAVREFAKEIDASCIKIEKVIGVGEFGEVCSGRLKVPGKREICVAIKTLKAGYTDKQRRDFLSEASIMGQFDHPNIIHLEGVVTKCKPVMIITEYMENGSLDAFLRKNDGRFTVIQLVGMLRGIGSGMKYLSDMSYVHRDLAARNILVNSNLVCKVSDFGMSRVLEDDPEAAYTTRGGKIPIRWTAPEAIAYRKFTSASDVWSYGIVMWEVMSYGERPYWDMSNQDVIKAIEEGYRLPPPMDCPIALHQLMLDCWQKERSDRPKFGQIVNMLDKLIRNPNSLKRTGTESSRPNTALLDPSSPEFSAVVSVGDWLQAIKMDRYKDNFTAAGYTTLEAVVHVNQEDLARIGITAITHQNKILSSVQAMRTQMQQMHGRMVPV
Sequence of UniProt Q9P286 (whole entry, looked up): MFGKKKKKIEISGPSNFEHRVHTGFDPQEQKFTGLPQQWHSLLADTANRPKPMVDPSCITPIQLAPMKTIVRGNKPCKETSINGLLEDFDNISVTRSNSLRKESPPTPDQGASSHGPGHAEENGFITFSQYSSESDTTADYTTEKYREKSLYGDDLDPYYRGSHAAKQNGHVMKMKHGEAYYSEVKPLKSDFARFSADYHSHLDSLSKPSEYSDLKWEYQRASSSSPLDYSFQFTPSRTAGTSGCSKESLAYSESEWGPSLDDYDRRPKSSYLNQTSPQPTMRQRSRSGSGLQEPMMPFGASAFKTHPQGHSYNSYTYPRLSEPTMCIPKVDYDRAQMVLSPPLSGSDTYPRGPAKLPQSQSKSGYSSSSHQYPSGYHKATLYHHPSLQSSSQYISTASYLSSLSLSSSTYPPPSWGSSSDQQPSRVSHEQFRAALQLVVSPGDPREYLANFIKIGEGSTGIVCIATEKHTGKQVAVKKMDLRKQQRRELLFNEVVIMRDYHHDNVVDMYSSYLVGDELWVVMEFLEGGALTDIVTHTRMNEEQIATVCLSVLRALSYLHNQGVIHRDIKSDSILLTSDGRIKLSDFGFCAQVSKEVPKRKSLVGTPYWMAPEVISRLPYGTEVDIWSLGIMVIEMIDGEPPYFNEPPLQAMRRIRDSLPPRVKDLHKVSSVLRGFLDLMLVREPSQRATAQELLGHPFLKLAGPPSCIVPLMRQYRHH
Sequence of UniProt P35626 (whole entry, looked up): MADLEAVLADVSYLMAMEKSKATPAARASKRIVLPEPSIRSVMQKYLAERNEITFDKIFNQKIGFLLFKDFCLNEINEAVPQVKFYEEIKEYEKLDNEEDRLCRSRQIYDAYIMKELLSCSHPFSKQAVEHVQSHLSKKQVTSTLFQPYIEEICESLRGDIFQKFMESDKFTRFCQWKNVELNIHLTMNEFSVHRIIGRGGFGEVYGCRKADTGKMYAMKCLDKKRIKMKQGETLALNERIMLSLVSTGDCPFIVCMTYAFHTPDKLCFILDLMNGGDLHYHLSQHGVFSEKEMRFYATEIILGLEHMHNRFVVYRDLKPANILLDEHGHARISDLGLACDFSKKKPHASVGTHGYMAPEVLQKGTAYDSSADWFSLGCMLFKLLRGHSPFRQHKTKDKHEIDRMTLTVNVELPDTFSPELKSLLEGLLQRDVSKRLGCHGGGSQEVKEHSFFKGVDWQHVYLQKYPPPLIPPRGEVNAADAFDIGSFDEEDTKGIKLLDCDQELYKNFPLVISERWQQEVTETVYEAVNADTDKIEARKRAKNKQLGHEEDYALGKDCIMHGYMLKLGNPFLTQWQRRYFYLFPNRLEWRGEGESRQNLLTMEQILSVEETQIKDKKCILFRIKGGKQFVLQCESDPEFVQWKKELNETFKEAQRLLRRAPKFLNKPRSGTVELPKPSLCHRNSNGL

| Compound | tested on | test | system | conditions | how to read | measurement | value |
| --- | --- | --- | --- | --- | --- | --- | --- |
| CC(C)C(=O)Nc1n[nH]c2cc(-c3cccc(NS(=O)(=O)C4CC4)c3)ccc12 | Phosphatidylinositol 4-phosphate 5-kinase type-1 gamma (PIP5K1C, Homo sapiens, UniProt O60331) | ADP-Glo |  | 123 nM | reference: DMSO | remaining activity | 99.6% |
| Nc1cc(F)ccc1NC(=O)/C=C/c1cnn(C/C=C/c2ccccc2)c1 | OCI-Ly1 |  |  | 0.1 µM, 120 h |  | viability | 202% |
| CC(C)OCCn1c(=S)[nH]c(=O)c2[nH]ccc21 | Myeloperoxidase (MPO, Homo sapiens, UniProt P05164) | chlorination activity |  | 0.078 µM, 0.1 h, with: iodide, TMB |  | remaining activity | 103% |
| Cc1cc(NC(=O)c2cccc(NC(=O)/C=C/CN(C)C)c2)ccc1Nc1nccc(-c2cccnc2)n1 | Mitogen-activated protein kinase 8, phosphorylated (MAPK8, Homo sapiens, UniProt P45983) | enzyme activity after dialysis, inhibitor |  | 10 µM, 4 days, unit not given | reference: no inhibitor | remaining activity | 0.0679 |
| CNCC(=O)O | Sodium- and chloride-dependent glycine transporter 1 (SLC6A9, Homo sapiens, UniProt P48067) | [3H]glycine uptake, inhibitor | HEK293F cells | 3000 µM | reference: cells without inhibitor | remaining activity | 11.4% |
| C=CC(=O)N1CCC[C@@H](n2nc(-c3ccc(Oc4ccccc4)cc3)c3c(N)ncnc32)C1 | MAPK3 | kinase activity, inhibitor, HotSpot radiometric |  | 100 nM, with: ATP 10 µM |  | remaining activity | 91.5 ± 0.9% |
| Cc1nc2c(Cl)cccn2c1NC(=O)c1ccc(-c2ccc(N(C)C)cc2)o1 | COS-7 |  |  | 10 µM, 24 h, 0.1% DMSO, unit not given | reference: vehicle control | apoptotic cells | 1.29 ± 0.28 |
| COc1cc(-c2cncc3c2CN(C)Cc2cc(N4CCNCC4)ccc2-3)cc(OC)c1OC | G protein-coupled receptor kinase 3 (GRK3, Homo sapiens, UniProt P35626) | kinase activity |  | 1 µM, human enzyme, with: ATP 10 µM | reference: DMSO control | remaining activity | 95% |
| C[C@@H]1CC[C@@]2(OC1)O[C@H]1C[C@H]3[C@@H]4CC[C@H]5C[C@@H](O)CC[C@]5(C)[C@H]4CC(=O)[C@]3(C)[C@H]1[C@@H]2C | UGT1A4 | glucuronidation, inhibitor | human liver microsomes | 100 µM, with: probe substrate 0.5 µM | reference: no inhibitor | remaining activity | ~8% |
| CN(C)CC#Cc1ccc2[nH]c3c(c2c1)-c1nc(N)ncc1CCC3 | Serine/threonine-protein kinase PAK 5 (PAK5, Homo sapiens, UniProt Q9P286) | kinase activity, inhibitor, radiometric |  | 1 µM, with: ATP at Km |  | remaining activity | 89% |
| O=C1NC(=O)/C(=C/c2ccc(-c3ccc(F)cc3O)o2)S1 | VEGFR | enzyme activity |  | 10 µM |  | remaining activity | 22% |
| CNc1ncc2c(/C=C/C(=O)N3CCC(OC)CC3)nn(Cc3cccc(C(F)(F)F)c3)c2n1 | Bone morphogenetic protein receptor type-1B (BMPR1B, Homo sapiens, UniProt O00238) | kinase activity, inhibitor |  | 1 µM | reference: untreated control | remaining activity | 85% |
| COc1ccc2cc3[n+](cc2c1OC)CCc1cc2c(cc1-3)OCO2 | P2X purinoceptor 7 (Ailuropoda melanoleuca, UniProt G1M6C4) | ATP-evoked current, whole-cell patch clamp | HEK293 (transfected) | 300 µM | reference: no compound | remaining activity | 47.1% |
| C[C@]12O[C@H](C[C@]1(O)CO)n1c3ccccc3c3c4c(c5c6ccccc6n2c5c31)CNC4=O | OCI-Ly1 |  |  | 0.5 µM, 120 h |  | viability | 25.8% |
| O=c1cc(-c2ccc(O)c(-c3c(O)cc(O)c4c(=O)cc(-c5ccc(O)cc5)oc34)c2)oc2cc(O)cc(O)c12 | UGT1A4 | glucuronidation, inhibitor | human liver microsomes | 1 µM, with: probe substrate 50 µM | reference: no inhibitor | remaining activity | ~80% |
| COc1cc(N2CCN(C)CC2)ccc1Nc1nc(N)n(C(=O)NCc2c(Cl)cccc2Cl)n1 | ALK | enzyme activity |  | 10 µM | reference: control | remaining activity | 1.8% |
| C=C(c1ccc(C(=O)O)cc1)c1cc2c(cc1C)C(C)(C)CCC2(C)C | COS-7 |  |  | 100 µM, 24 h, 0.1% DMSO, unit not given | reference: control | apoptosis | 3.51 ± 1.72 |
| Cn1c(=O)n(-c2ccc(C(C)(C)C#N)cc2)c2c3cc(-c4cnc5ccccc5c4)ccc3ncc21 | VEGFR | enzyme activity |  | 10 µM |  | remaining activity | 80% |
| COc1cc(N2CCN(C)CC2)ccc1Nc1nc(N)n(C(=O)NCc2ccccc2S(=O)(=O)C(C)C)n1 | ALK | enzyme activity |  | 10 µM | reference: control | remaining activity | 5.3% |
| Cc1cc(Nc2cc(N3CCN(C)CC3)nc(Sc3ccc(NC(=O)C4CC4)cc3)n2)[nH]n1 | EPHA4 | kinase activity, KinaseProfiler |  | 0.03 µM, species human | reference: control | remaining activity | 97% |
| COc1cc(Nc2ncc3c(n2)-c2ccc(Cl)cc2C(c2c(F)cccc2OC)=NC3)ccc1C(=O)O | ROCK2 | kinase activity |  | 1 µM |  | remaining activity | 102% |
| Nc1ncc2c(n1)-c1c([nH]c3ccc(-c4ccc(F)cc4)cc13)CCC2 | MAP/microtubule affinity-regulating kinase 4 (MARK4, Homo sapiens, UniProt Q96L34) | kinase activity, inhibitor, radiometric |  | 1 µM, with: ATP at Km |  | remaining activity | 73% |
| O=C(NC1CCC1)c1ccc2nc(-c3cccc(NS(=O)(=O)NCCN4CCCCC4)c3)cn2c1 | EPHA4 | enzyme activity |  | 10 µM |  | remaining activity | 79% |
| COc1ccc(F)cc1C(=O)NCc1ccc(-c2nn([C@@H](C)C(F)(F)F)c(N)c2C(N)=O)cc1 | MAPK3 | kinase activity, inhibitor, HotSpot radiometric |  | 1000 nM, with: ATP at Km |  | remaining activity | 106.8 ± 0.9% |
| COc1cc(F)ccc1-c1ncnc(Nc2cccc(C[S@](C)(=N)=O)c2)n1 | Serine/threonine-protein kinase pim-2 (PIM2, Homo sapiens, UniProt Q9P1W9) | kinase activity |  | 10 µM, with: 10 µM ATP |  | remaining activity | 88% |
| O=C(O)c1ccc(Nc2ncc3c(n2)-c2ccc(Cl)cc2C(c2c(F)cccc2F)=NC3)cc1 | PKCι(h) | kinase activity |  | 1 µM |  | remaining activity | 109% |
| COc1cc(N2CCN(C)CC2)ccc1Nc1nc(N)n(C(=S)NCc2c(Cl)cccc2Cl)n1 | Serine/threonine-protein kinase ICK (CILK1, Homo sapiens, UniProt Q9UPZ9) | enzyme activity |  | 10 µM | reference: control | remaining activity | 23% |
| C=CC(=O)N1CCC([C@@H]2CCNc3c(C(N)=O)c(-c4ccc(Oc5ccccc5)cc4)nn32)CC1 | MAPK3 | kinase activity, inhibitor, HotSpot radiometric |  | 100 nM, with: ATP 10 µM |  | remaining activity | 76.1 ± 2.5% |
| NC/C(=C\F)COc1cccc(Cn2c(=S)[nH]c(=O)c3[nH]cnc32)c1 | Peroxidasin homolog (PXDN, Homo sapiens, UniProt Q92626) | Amplex UltraRed |  | 0.3125 µM, mean of replicates | reference: control | remaining activity | 99.8% |
| C=CC(=O)N1CCC[C@@H](n2nc(-c3ccc(Oc4ccccc4)cc3)c3c(N)ncnc32)C1 | Receptor tyrosine-protein kinase erbB-3 (ERBB3, Homo sapiens, UniProt P21860) |  |  | 0.1 µM |  | remaining activity | 100% |
